Experimental data pooled from the literature.
Parts stem from different laboratories: compare values within a part only.

Study 1
Target: RING finger protein unkempt homolog, zinc fingers 1-6, GST-SBP tag (UNK, Homo sapiens, UniProt Q9C0B0, residues 30-357)
Chain of UniProt Q9C0B0 (30-357, looked up): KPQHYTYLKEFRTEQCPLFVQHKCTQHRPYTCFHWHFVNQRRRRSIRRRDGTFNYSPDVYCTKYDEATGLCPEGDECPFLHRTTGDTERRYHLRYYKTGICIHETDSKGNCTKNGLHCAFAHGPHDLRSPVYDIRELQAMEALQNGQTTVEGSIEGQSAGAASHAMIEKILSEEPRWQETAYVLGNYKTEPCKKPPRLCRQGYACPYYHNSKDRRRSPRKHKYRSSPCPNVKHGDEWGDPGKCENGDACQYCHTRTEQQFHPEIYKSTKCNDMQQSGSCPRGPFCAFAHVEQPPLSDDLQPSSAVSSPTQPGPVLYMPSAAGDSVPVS
Method: RNA Bind-n-Seq
Form: RNA
Matrix: in vitro
Tested at: not given
Setting: RNA with constant flanks, human and mouse sites, ends assumed
Relative to: input RNA pool
Reading: higher = stronger binding
Constant ends, left off below: GGGAGUUCUACAGUCCGACGAUC … CAACAGAGGAUUGAGCAUCA
Sequence	bound/input enrichment [ratio]
GUCAUCGAUGCGGGAGUAUGUAGGAGACUUGUGGAACUGCUGAUGCAUAAUGAUUAUAAAGUGGUUUCUCCUGCUUUGCGAGCUGUGGGAAACAUUGUCACAGGGGAUGAUAUUCAGACA	0.307
AGUCUUCCAUCAUAAAUUUAACUUCAUUAGAUACCUGAGAAUUAAUAUUGAAAAUACACCAUAUGAAUUUAGUGAAUGUGGGAAAGCUUUCAUCCUUAUUACAUCUUAUUUGAUACUAGG	4.91
CCGACCCCGGCCGCGCCCAGCCCCCACCAUGCCACCCGCGGGGCUCCGCCGGGCCGCGCCGCUCACCGCAAUCGCUCUGUUGGUGCUGGGGGCUCCCCUGGUGCUGGCCGGCGAGGACUG	0.661
GUACUGCUGGUAUUGUACCAGGAACAUUUUCUUUUAUUGUUACUUGCUUUUUAAACUUUGUUUAGCCACUUAAAGAAAACCUGCUCAUGGCACAACUUGCCUCAAAUCCAUUCCAAGUUG	0.475
UAAGACAGGCAUCAGUAUGUCCCUUCUUACCGUAAUAGAAAAACUGAGAGAAAGGACAGACCAGAAUGCAUCAGAUGAUGACAUUUUGAAAGAGUUGCAGGACAAUGCCCAGUGUCAGCC	0.157
UGACUGUUAUGAUUAUCAGAAUGUCUUAACUUUUUAGGGCAAAGUUAACACUGAAAGUUCUAGCUUAAGUGUUGAAACUUUUGUGGGAAAAAAAAAUCACUUUUGAAACUCAGACUUCAG	0.16
CCUGAAGCUUUUGAUCCUAAAAGGUUAUUAGAAGAAUUUGUGAAUCAUAUUCAAGAACUGCAGAUAAUGGAUGAAAGGAUUCAAAGGAAAGUGGAGAAAUUAGAACAACAGUGUCAGAAG	0.37
AUGGGCCUAUUUGUUUGGUGCUGGCACCAACUCGGGAACUGGCCCAACAGGUGCAGCAAGUAGCUGCUGAAUAUUGUAGAGCAUGUCGCUUGAAGUCUACUUGUAUCUACGGUGGUGCUC	0.292
GGACAGACGUGUGGAAAACAUAAAUGUCCAAGAAACACUUUUGUCUUAAUGGUCUGUGGAAAUAGGUUCACUCCUUGAAAUUAAGGUCUAAAAGGUGUUUUGUGGUUUCUGUAUUUCUUC	0.218
UGCACAGACCUCCUGAAUAAGGCCAACACGUAUGCAGAACAACAUUUUGCAGAUGUCGUACUUAGUGAAGAGUUUCUUAACCUCGGCAUCGAGCAGGUGUGCAGCUUAAUCUCCAGUGAU	0.101
AGAGAAAUGAGAAAGAAUCUCACACAAGAUGAGAUGCAAAGAAUGUCUACUAGAGUCCUUUUAGCCACUCUUUCCAUCCCUAUUACUCCUGAGCGUACGGAUAUUGCUCGACUUCUGGAU	0.189

Study 2
Target: RNA binding protein fox-1 homolog 2, RRM domain, GST-SBP tag (RBFOX2, Homo sapiens, UniProt O43251-10, residues 100-194)
Method: RNA Bind-n-Seq
Form: RNA
Matrix: in vitro
Tested at: 365 nM
Setting: natural RNA segment, single round, ends assumed
Relative to: no-protein control
Reading: higher = stronger binding
Constant ends, left off below: GGGAGUUCUACAGUCCGACGAUC … UGGAAUUCUCGGGUGCCAA
Construct (chain): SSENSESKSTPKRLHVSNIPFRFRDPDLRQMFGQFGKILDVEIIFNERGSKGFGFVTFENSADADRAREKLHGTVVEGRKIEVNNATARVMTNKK
Sequence	RBNS enrichment (R)
UAGUGUCUUAUCACUCUUUCAUGUCACAAUAGCGUGGAGCAUUAGAGAAAAGCCUAGACUUUUAGUUGAUAGCCAGUUGAAAUAUCAUUGAUAGAAUUUUAGUUUUAGGA	0.447
UACCCAACUAUGUUGUGAUAGAAGAAAGAGAAACCUUCACUUUGGCAUUUUUUUUUAAUCACUGUUUAUUUUUCUGUUUGCGGCCCAGGAAGCAGUGGGAGGUGGUGGCA	0.955
UGGACACCAUGCUGGGCCUGCUGCAGUCUGACCUCAGCCGUCGUGGUGUCCCCACACAGGCCAAAGGCCUCUGUGGCUCCUGCAAUAAACCUAUAGCUGGGCAAGUGGUU	0.386
AGUGUGAGUUUUGUCACAUUCUGGGCAGGUAGAGACGUGAAUGCUCUGUGGACCCUCCCCCUCUCCCAACCUAGGCCUGUCUGGCAUGCUGCAAGGACCAGAGCCAGCCC	3.97
UGAGAGGCAUUGGGCUAAGAAAGAAAAGACUGUUGUAUAAUACCUUGUUCAAUGGUUGUAUUUAGUGAGCUCAUAGAGGUCCAUCAUAUCAUGACCGAGCUAGGUUGUGU	1.4
AAACAGUUGCAUCUGUAGAUUAAGAUGCUUUACAUUAGACCGUUGUGUCUCGAUGUAUAUCUGUAUAUAUUAUUUGAUAAUCAGAAAAUCUAUAGAGUUCACACACACAC	0.356
GAAUCUUCCCUGUCAGGCUCUUACAGCCACAGGCACUGUGUCUACUGUCUGGAAGACAUGUCCCCAUGGCUGUGGGGCCGCUGCUUCUGUUUAAAUAAAAGUGGCCUGGA	0.365
CUGGAAAGUAGUCUUGAGAGGCAGAAGCCGAAGGUUCGAGAGCCAGUGUUUAAUGUGCAGGAUCUAGAGAGUUGUCAAAGCAGAAGCUGAGAGCGCAGACCUAUUUCUAG	0.517
UGCUGGUAUGAUGGACCAGGCAGGCCAGGCAGACGGGAGGAGGGCUGGGAACAAGAGCAGCCCACUCUGCAGGAAUGCAACCUGAGCUGCAAACCAGGAGAAAAGGAGAC	0.928
GACACUUGAUAGAAAGACUACUGGUUAAACACAAUAAACAAAGUUCAUUAUUCACUUAUUAGCAAGAAGGUAGCAUUAUCAUAAAGGAUUAGAUGACUUAAGUUAGCUAU	0.79
AGUAGCAUGUCAGCUGCUGAUGAAGUAGAAGGCCUGGGUGGCCUGGAAAAAGGACACAGAAUGGGGCUUGUGGGAAAGACCGGGACAAUAAAGCCCACCAUGUAAACCAA	0.865
GAAAUCAGGCCGUUUCCCUCCGCGUGCAUUGGUUUUGGUCUGUCUUUCAGUUCUGUUUCAAACUAGUGUAACACCACGCUGGCUCUAAUGUAUCUUUUCCACUUAUUGUU	0.329

Study 3
Target: Centromere-binding protein 1, full length, N-terminal tag (CBF1, Saccharomyces cerevisiae, UniProt P17106, residues 1-351)
Chain of UniProt P17106 (whole entry, looked up): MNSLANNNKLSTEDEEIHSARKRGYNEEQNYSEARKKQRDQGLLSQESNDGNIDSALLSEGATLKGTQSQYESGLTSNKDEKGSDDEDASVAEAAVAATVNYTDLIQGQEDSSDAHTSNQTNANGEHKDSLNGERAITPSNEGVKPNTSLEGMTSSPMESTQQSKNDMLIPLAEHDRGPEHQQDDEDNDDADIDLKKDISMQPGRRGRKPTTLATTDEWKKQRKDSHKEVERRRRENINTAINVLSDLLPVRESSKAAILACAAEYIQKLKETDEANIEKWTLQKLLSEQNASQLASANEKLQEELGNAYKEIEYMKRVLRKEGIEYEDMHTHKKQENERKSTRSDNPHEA
Method: protein-binding microarray
Form: double-stranded DNA, one strand shown
Matrix: in vitro
Tested at: 0.8 µM
Setting: whole 60-bp probe, no competitor
Reading: higher = stronger binding
Constant ends, left off below: … GTCTTGATTCGCTTGACGCTGCTG
Sequence	fluorescence intensity
CTAACAATTCCATTTGATGTCACCGTGGTAATATTC	569 a.u.
GAACATGGATATTGTGCTGATGTAAAAGTATTCTAG	573 a.u.
TGTACGAAGCTATCCCACACGGGTATAGTAGTTAGG	497 a.u.
CTACTAGTATACTGTCACATGCGGTGTAACGTGTTC	1940 a.u.
CTATTATCAAAAAAGTGCGTGGTCACTCTAGACTTC	545 a.u.
CTATATTGTTGAGATCATATGATGATAACGCAATTC	899 a.u.
GAAGCTATCCAAATCCACGTTTCTTTTTATTTATAG	569 a.u.
GAAAAAACAAAAGCAAATCACATGTGCACATACTAG	4420 a.u.
GAAGAATCCTAATTCAACGTGAAATTGGTGGACTAG	541 a.u.
TGTACGAAGCTATGCGACGTGTCTATAGTAGTTAGG	503 a.u.
CCTAACTACTATATCGACGTGTCATAGCTTCGTACA	530 a.u.
GAAATAATACTTATCAGCGTGATTGGATTGTAGTAG	721 a.u.
TGTACGAAGCTATATAACGTGGGTATAGTAGTTAGG	556 a.u.
GAAATGCCCAGGGAACACGTTGATTTAGAAGCATAG	541 a.u.
CTACTTATTCAACGTGACGTTGTGATATATGTATTC	1400 a.u.
CCTAACTACTATAATTGCATGACATAGCTTCGTACA	544 a.u.
GAAGCTGAAAAACTGCACGAGAATTCGTGAAACTAG	627 a.u.
GAAGGCTGTTTTCGTCACGGGGAATCCTTACACTAG	1170 a.u.
GAAATCCTTGAAAACGGCATCAGGATGCACAAATAG	491 a.u.
CTATCGAACATTTCTACCACTAATCACACCAGGTTC	534 a.u.

Study 4
Target: Histone acetyltransferase KAT6A, winged helix 2, GST fusion (KAT6A, Homo sapiens, UniProt Q92794, residues 85-181)
Method: protein binding microarray
Form: double-stranded DNA, one strand shown
Matrix: in vitro
Tested at: not given
Setting: 8-mer, flanks averaged, mean of 2 arrays, mostly near background
Relative to: not given
Reading: higher = stronger binding
Residues (chain): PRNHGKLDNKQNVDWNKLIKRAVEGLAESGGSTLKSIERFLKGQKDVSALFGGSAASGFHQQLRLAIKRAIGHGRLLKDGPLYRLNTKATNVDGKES
Sequence	E-score
ATACCGAC	-0.102
ACGAATAA	-0.0271
TCGAGCAA	0.235
AATCTGTA	-0.0857
ATCCACTG	-0.0604
ACGTACCA	-0.0922
CACCACAG	0.118
CAACTCGC	0.11
CTGTATTA	0.00199
CAAGGACG	-0.101
ATACTAAC	-0.0519
AAATACTT	-0.0511
TAGTGCCA	0.0784
ACGTATAG	-0.121
CTAGGTGC	-0.0812
AGCAACTG	0.0615
TAGCACAA	0.0792
CCCGTCTA	0.0372
GTCTCATA	-0.0819
CTAAGATC	-0.0846
TCCATCAA	0.0774
CTGCGCCC	-0.0307
ATTGCCTG	0.0714
GCTTTAAA	-0.00816
CGCCCGGC	0.283
